Published values gathered from unrelated publications.
Parts stem from different laboratories: compare values within a part only.

Series 1
Target: Sal-like protein 4, full length isoform B (SALL4, Homo sapiens, UniProt Q9UJQ4-2, residues 1-616)
Technique: universal PBM
Form: double-stranded DNA, one strand shown
Matrix: in vitro
Tested at: not given
Notes: 8-mer, flanks averaged, mean of replicates
Reading: higher = stronger binding
Quantity: E-score
ACTCGAAG: -0.0921
ACTGGCAC: -0.2
CGTTCTCA: -0.0765
GATAGGCA: 0.147
AGTGAATC: -0.025
ACATGGGC: -0.137
AAGCGGTG: -0.203
AGCATTGC: -0.0309
GCCGGCAC: -0.404
GACGAGAC: -0.0826
CAGTCGCG: -0.411

Series 2
Target: Histone acetyltransferase KAT6A, both winged helices, GST fusion (KAT6A, Homo sapiens, UniProt Q92794, residues 1-181)
Technique: protein binding microarray
Form: double-stranded DNA, one strand shown
Matrix: in vitro
Tested at: not given
Notes: 8-mer, flanks averaged, mean of 2 arrays, mostly near background
Reference: not given
Reading: higher = stronger binding
Quantity: E-score
Target sequence (chain): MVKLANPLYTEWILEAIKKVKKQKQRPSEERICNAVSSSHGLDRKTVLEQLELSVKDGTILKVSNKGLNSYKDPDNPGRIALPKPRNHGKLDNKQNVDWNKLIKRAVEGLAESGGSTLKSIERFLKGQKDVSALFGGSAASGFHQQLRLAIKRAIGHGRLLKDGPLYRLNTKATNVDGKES
CCCTCTCA: -0.284
CACTCAAA: -0.0675
AGAATGTG: -0.0598
AGCCGCAT: 0.161
CGCATGTA: 0.151
GCGCAACC: 0.21
ATCATCGG: 0.15
ATCAGTAA: -0.0764
CACGCTAA: 0.116
AACGGCCT: 0.167
ACGATACT: 0.0277
AATCCCCC: -0.152

Series 3
Target: RNA binding protein fox-1 homolog 2, RRM domain, GST-SBP tag (RBFOX2, Homo sapiens, UniProt O43251-10, residues 100-194)
Technique: RNA Bind-n-Seq
Form: RNA
Matrix: in vitro
Tested at: 365 nM
Notes: natural RNA segment, single round, ends assumed
Reference: no-protein control
Reading: higher = stronger binding
Quantity: RBNS enrichment (R)
Shared flanks, not repeated: GGGAGUUCUACAGUCCGACGAUC … UGGAAUUCUCGGGUGCCAA
Target sequence (chain): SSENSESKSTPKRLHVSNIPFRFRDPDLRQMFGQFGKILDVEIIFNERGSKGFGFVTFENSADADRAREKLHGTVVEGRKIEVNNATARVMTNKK
UUUAGAGUUUUACCAGCUAUUUAUUGAGUACCCUGUAUAUAGUAGAUCAGUGAGGAGGUGAAUGUAUAAGUUAUGGCCUGGACCCUGCUGCAGAUGCUGUGAGAGUCUGG: 1.91
GCAUCUGCUUACCUCAUGGCGCUGUUUGUUUCAGAUUUUGAAAGCUCACAGGUGUUUGUUGGAAUCAUUUGCCGAGUCAUUUCCUCAAAUCAUAUUCCAUUGUGUCAGUU: 0.566
ACGUAAACACUGGUGACAUAAACCAUUCAUUGCUACGUUGCUUAUUGUGUUUUUAUGCUGUUUUAUACUUUUUUAUGAGUUAUGAUAGCAGCAAUUAAGUUGUUUGUAUU: 0.263
CCCCCAAUCCAUGAACCAAGACCAUUGAAUUCUUGGUUGAGGAAACAAACAUGACCCUAAAUCUUGACUACAGUCAGGAAAGGAAUCAUUUCUAUUUCUCCUCCAUGGGA: 0.246
CUUGUCCACAUAGGUUUAGAGAUAAGAGUUGGCUGGUCAACUUGAGCAUGUUACUGACAGAGGGGGUAUUGGGGUUAUUUUCUGGUAGGAAUAGCAUGUCACUAAAGCAG: 22.5
CACACUUGAUGACAUUACAAAGCUAAACCAUGCCUCUUGGUAAAGCUGCUUGAUUACAAGUGCCAGGAAAACGACUGUUAUCCACUGCGUACUACAUGUUACAUGCUGCA: 0.976
AAUUAGCAAGGGCUAACAGUACAUCUGAUGAACUAUGGUAACUGAAGAACAUUUUUAAUUCUUUAGGAAUCUGCAAUGAGUGAUUACAUGCUUGUAAUAGGUAGGCAAUU: 0.37
GUUAGUACCUCUAGAAAUCAUGUGUCCUAGGAAUGGCAAGGAUGGAAAGAAAGUUGAAGACUGUUCUCUGGCUUCUCCUACCUAGGUACAGCAGACUGUAGUACCUCACA: 0.509
CCCUGUGAGGUUUCAGGCACUAAAACUCUAUGUGGGGAAGGGAGGGGUUACUCCUCCUCCAAUGGGACUCAAGGACUUGACCUCCAGGAGUAGGCCCCUGGUCAGAAGUG: 0.567
GGAAUUACUCUUUUAGAGAAAAACACUGGAAAUUUUGCUAACACAAUACUUAAAAGUAUAUAGUUGGUGGUUAAGCUUAUGAGAUGAGUGAAUGGAAAACCUGGGAGAGG: 1.02
CACCUGUGAGGAGAGUUGGGGCCCAGCCGUCUUCCUGGCCUCCUUCCUUUCCUCGUGGCAGAGGCCUGCAUGUGGGUGCCAGAGGCCAGCUCUCCCCCUCCAUCUUGGGG: 3.6
GGGCAUUGUGGCAGAAUUUUAGGAAGGCAUUGUACAGCCUCUAAGCAUAUCUAAGUGCCAUGAAUACAUUUUCCCUACUCUAUAGCAUAGCUCUGUAAAACUUGUCCUGU: 0.367

Single results of other studies
PhoQ, residues 284 288 289 292 302 303 SLANKL
fold induction (PhoP, residues 12 14 15 18 19 SYFRT (Escherichia coli, UniProt P23836); Sort-seq, item: YFP reporter; E. coli; PhoQ-PhoP variant library, added: 10 µM Mg2+; reference: high Mg2+ state, higher = stronger signaling): 4.98

Repeated from above (series 3):
CACCUGUGAGGAGAGUUGGGGCCCAGCCGUCUUCCUGGCCUCCUUCCUUUCCUCGUGGCAGAGGCCUGCAUGUGGGUGCCAGAGGCCAGCUCUCCCCCUCCAUCUUGGGG: 3.6
GGGCAUUGUGGCAGAAUUUUAGGAAGGCAUUGUACAGCCUCUAAGCAUAUCUAAGUGCCAUGAAUACAUUUUCCCUACUCUAUAGCAUAGCUCUGUAAAACUUGUCCUGU: 0.367
UUUAGAGUUUUACCAGCUAUUUAUUGAGUACCCUGUAUAUAGUAGAUCAGUGAGGAGGUGAAUGUAUAAGUUAUGGCCUGGACCCUGCUGCAGAUGCUGUGAGAGUCUGG: 1.91
CUUGUCCACAUAGGUUUAGAGAUAAGAGUUGGCUGGUCAACUUGAGCAUGUUACUGACAGAGGGGGUAUUGGGGUUAUUUUCUGGUAGGAAUAGCAUGUCACUAAAGCAG: 22.5
GCAUCUGCUUACCUCAUGGCGCUGUUUGUUUCAGAUUUUGAAAGCUCACAGGUGUUUGUUGGAAUCAUUUGCCGAGUCAUUUCCUCAAAUCAUAUUCCAUUGUGUCAGUU: 0.566
